Measurements gathered from unrelated publications.
“And” joins repeats or separate records; there may be more than shown. ± gives the spread as reported. Values after ≈ are worked out from the molar mass of the structure shown.

For `c1ccc(-c2n[nH]cc2-c2ccnc3ccccc23)nc1`, “log2 fold change” read 1.18 (orf19.4518 kinase Candida albicans; MIB/MS competition binding; Candida albicans cell lysate; 1 µM; baseline: DMSO, lower = stronger binding).
For `Cc1ccc(CCC(=O)Nc2nnc(S(N)(=O)=O)s2)cc1`, the MIC was 0.046 µM (≈ 0.015 µg/mL) (Enterococcus faecium; NR-31909).
For `N#Cc1ccc2c(-c3ccncc3)c(-c3ccc(F)cc3)nn2c1`, “log2 fold change” read -0.0452 (orf19.4144 kinase Candida albicans; MIB/MS competition binding; Candida albicans cell lysate; 1 µM; baseline: DMSO, lower = stronger binding).
For `O=C(N1CCc2ccccc21)n1ccnn1`, the hypocotyl length was 13.3 mm (Arabidopsis thaliana; wild type, seedlings; 0.1 µM, continuous red light, together with: 0.3 µM karrikin KAR2).
`Cn1cc(-c2ccc(-c3cncc(Cl)c3N3CCC4(CCNC4=O)CC3)cc2)cn1`: “log2 fold change” -2.28 (COLO 205; gene expression, microarray, refers to: EGFR mRNA; concentration not given, 6 h; baseline: untreated cells).
With `COc1cc(C(=O)NS(=O)(=O)c2ccccc2C)ccc1Cc1cn(C)c2ccc(NC(=O)OC3CCCC3)cc12` the inhibition was 32.6% and 64.2% and 34.2% and -2.6% and 18.1% (native VRAC; ion current, inhibitor, whole-cell patch clamp; wild-type HCT cells; 10 µM, pH 7.4, extracellular pH).
For `N#Cc1ccn2c(-c3ccncc3)c(-c3ccc(F)cc3)nc2c1`, “log2 fold change” read 0.135 (orf19.4144 kinase Candida albicans; MIB/MS competition binding; Candida albicans cell lysate; 100 nM; baseline: DMSO, lower = stronger binding).
For `C[C@H](Oc1ccc(Br)cc1-c1ccon1)C(=O)O`, “relative refractory period difference” read -0.02 ms (muscle velocity recovery cycles; human, tibialis anterior muscle; 1200 mg single dose, 3.5 h; baseline: placebo).
`CC(C)n1ncc2c(C(=O)NCC3(C)CNC3)cc(C3CC3)nc21` gave a cell protection of 86.1% and 91.8% (coxsackievirus B3; CPE; Vero; 1.5 µM).
`CC(=O)NC[C@H]1CN(c2ccc(N3CCOCC3)c(F)c2)C(=O)O1` gave an ED50 of 20.1 mg/kg (Enterococcus faecium; -9 vancomycin-intermediate, mice, systemic infection; intravenous, 2 and 8 h post-infection, survival over 7 days).
The EC50 of `CCn1cc(-c2cc(Cn3ccnc3)cc3c2CCN([C@H](c2cc(OC)ccn2)C2CC2)C3=O)c(C(F)(F)F)n1` is reported as > 30 µM (RCM-1; cell growth, inhibitor; 120 h).
With `O=C(/C=C/C=C/C=C/C1CCCCC1)NC1=C[C@@](O)(/C=C/C=C/C=C/C(=O)NC2=C(O)CCC2=O)[C@@H]2O[C@@H]2C1=O` the GI50 was 19.1 µM (HCC2935; cell growth, CellTiter-Glo; 78 h).
`C=C[C@]1(C)C[C@@H](OC(=O)CSCCN(CC)CC)[C@]2(C)[C@H](C)CC[C@]3(CCC(=O)[C@H]32)[C@@H](C)[C@@H]1O` gave a mycoplasma count of 3.04 log10 CFU/mL (Mycoplasma gallisepticum; infected chickens, lung; intramuscular, 40 mg/kg).
The sarcomere length of `O=C(O)CNC(=O)Cc1ccccc1` is reported as 1.72 µm (ventricular cardiomyocytes, C57BL/6 mouse; dose not given, 0.372 s).
`NC(=O)c1cnc2[nH]ccc2c1N[C@@H]1[C@@H]2CC3C[C@H]1C[C@@](O)(C3)C2`: “change from baseline” 0.1% (flow cytometry, refers to: CD4+ central memory T cells; Japanese healthy subjects, peripheral blood; oral, 10 mg twice daily, day 4).
`CN(C)CCCOc1cc(NC(=O)c2cccc(C(=O)Nc3cc(OCCCN(C)C)c4ccccc4n3)n2)nc2ccccc12` has a ΔTm of 18.2 ± 0.6 K (Bcl2 G-quadruplex DNA; FRET melting; 1 µM, pH 7.4, together with: 60 mM potassium).
`Cc1n[nH]c2ccc(-c3cc(OC[C@@H](N)Cc4ccccc4)cnc3-c3ccoc3)cc12`: “log2 fold change” -0.0109 (orf19.4518 kinase Candida albicans; MIB/MS competition binding; Candida albicans cell lysate; 1 µM; baseline: DMSO, lower = stronger binding).
The EC50 of `CCn1cc(-c2cc(Cn3ccoc3=N)cc3c2CCN([C@@H](C)c2cc(OC)ccn2)C3=O)c(C(F)(F)F)n1` is reported as 0.605 µM (CA46; cell growth, inhibitor; 120 h).
The sarcomere length of `CC(C)NCC(O)c1ccc(O)c(O)c1` (stereo not drawn) is reported as 1.61 µm (ventricular cardiomyocytes, C57BL/6 mouse; dose not given, 0.252 s).
`COc1cnc2cccc(N3CCc4c(cc(Cn5ccnc5C)cc4-c4cn(C)nc4C(F)(F)F)C3=O)c2c1` gave an EC50 of > 30 µM (HPAF-II; cell growth; 120 h).
`CN[C@H](CC(C)C)C(=O)N[C@H]1C(=O)N[C@@H](CC(N)=O)C(=O)N[C@H]2C(=O)N[C@H]3C(=O)N[C@H](C(=O)N[C@H](C(=O)O)c4cc(O)cc(O)c4-c4cc3ccc4O)[C@H](O)c3ccc(c(Cl)c3)Oc3cc2cc(c3O[C@@H]2O[C@H](CO)[C@@H](O)[C@H](O)[C@H]2O[C@H]2C[C@](C)(N)[C@H](O)[C@H](C)O2)Oc2ccc(cc2Cl)[C@H]1O` gave an MIC50 of 1 µg/mL (≈ 0.69 µM) (Staphylococcus epidermidis; methicillin-resistant, 10 isolates; pH 5.5).
